{"data": "Experimental data of several laboratories", "TDP1": "Tyrosyl-DNA phosphodiesterase 1 (TDP1, Homo sapiens, UniProt Q9NUW8)", "note": "Lines come from different studies, so protocols differ. “And” joins repeats or separate records; there may be more than shown. ± gives the spread as reported.", "chain of UniProt Q9NUW8 (whole entry, looked up)": "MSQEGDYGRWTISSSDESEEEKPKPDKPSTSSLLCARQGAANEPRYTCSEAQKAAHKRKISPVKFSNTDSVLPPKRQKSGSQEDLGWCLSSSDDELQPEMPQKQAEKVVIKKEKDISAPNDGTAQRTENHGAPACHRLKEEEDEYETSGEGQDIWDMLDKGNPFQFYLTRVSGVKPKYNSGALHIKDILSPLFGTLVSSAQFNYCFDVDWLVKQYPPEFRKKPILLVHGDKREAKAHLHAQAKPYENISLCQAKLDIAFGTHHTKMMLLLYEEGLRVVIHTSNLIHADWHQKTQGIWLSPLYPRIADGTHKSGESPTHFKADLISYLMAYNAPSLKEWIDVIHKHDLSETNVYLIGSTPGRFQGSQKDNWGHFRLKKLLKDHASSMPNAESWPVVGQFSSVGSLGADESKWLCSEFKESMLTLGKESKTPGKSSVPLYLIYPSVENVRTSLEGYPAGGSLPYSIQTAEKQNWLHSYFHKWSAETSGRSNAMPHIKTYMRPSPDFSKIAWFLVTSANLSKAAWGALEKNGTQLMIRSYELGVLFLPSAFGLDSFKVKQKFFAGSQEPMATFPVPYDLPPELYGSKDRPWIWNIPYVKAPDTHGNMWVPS"}
{"Compound": "O=C(NCC(F)(F)F)c1cccc(N2Cc3cn(Cc4ccc(F)cc4)nc3C2)c1", "target or system": "HEK293 expressing GluA1 and GluA2", "test": "glutamate excitotoxic cell death, CellTox Green", "setting": "together with: glutamate", "measurement": "IC50", "value": "28 nM"}
{"Compound": "Cc1cc(Cl)cc(-c2ccnc3cc(CN4C(=O)C5C(C4=O)C5(C)C)sc23)c1C[C@@H]1CNCCO1 (stereo partly shown)", "target or system": "CHP-212 parental", "test": "PI flow cytometry", "setting": "0.3 µM, 24 h", "measurement": "G1 phase cells", "value": "67.7%"}
{"Compound": "COc1ccccc1-c1ccncc1C(=O)Nc1nnc(OCc2ccc(Cl)cc2)s1", "target or system": "MDA-MB-436 BRCA1-mutant", "setting": "3 µM", "measurement": "colony count", "value": "8 and 9 and 14 and 12"}
{"Compound": "O=C(C[Se]C(=O)c1cc2ccccc2[nH]1)Nc1cccc(C(F)(F)F)c1", "target or system": "NCI60 CNS subpanel", "test": "NCI60 five-dose screen", "measurement": "mean TGI", "value": "3020 nM"}
{"Compound": "O=C(NC1CCCC1)c1cccc(N2Cc3cn(Cc4ccc(F)cc4)nc3C2)c1", "target or system": "HEK293 expressing GluA1 and GluA2", "test": "glutamate excitotoxic cell death, CellTox Green", "setting": "together with: glutamate", "measurement": "IC50", "value": "3.5 nM"}
{"Compound": "CNS(=O)(=O)Nc1nccc(Cc2c(C)c3ccc(Oc4ncccc4F)cc3oc2=O)c1F", "target or system": "KMRC-1", "test": "cell viability", "setting": "7 days", "measurement": "IC50", "value": "> 1000 nM"}
{"Compound": "Cn1c(=O)n(C2CCC(=O)NC2=O)c2ccc(C3CCN(CC(=O)Nc4cccc(CS(=O)(=O)N5CC[C@H](Nc6cccc(-c7sc(C(=O)O)c(OCC(=O)O)c7Cl)c6)CC5(C)C)c4)CC3)cc21 (stereo partly shown)", "target or system": "B16-F10", "test": "HTRF, measured: phospho-STAT1 Tyr701", "setting": "0.041 µM, together with: IFN-γ", "scale": "reference: min-max normalised", "measurement": "pSTAT1 level", "value": "58% and 56.1% and 58.8% and 64.1% and 64.7% and 64.5%"}
{"Compound": "COCCNC(=O)c1cccc(N2Cc3cn(Cc4ccc(F)cc4)nc3C2)c1", "target or system": "HEK293 expressing GluA1 and GluA2", "test": "glutamate excitotoxic cell death, CellTox Green", "setting": "together with: glutamate", "measurement": "IC50", "value": "976 nM"}
{"Compound": "C1=[N+]2CCCC[N+]3=Cc4ccc5[n]4[Au-]23[n]2c1ccc2-c1nc2ccccc2nc1-5.F[P-](F)(F)(F)(F)F", "target or system": "HOP-92", "test": "NCI60 five-dose screen", "measurement": "TGI", "value": "4 -log M"}
{"Compound": "CC(C)c1ccc(N(C)c2ccc3c(c2)OCC[C@H]3CNc2cnccc2C(=O)O)cc1", "target or system": "NCI-H520", "test": "cell growth or viability, ATP luminescence", "setting": "7 days", "measurement": "IC50", "value": "5.9 nM"}
{"Compound": "C=CC(=O)Nc1cc(Nc2nccc(-c3c(-c4cc(F)ccc4OC)n(C)c4ccccc34)n2)c(OC)cc1N(C)CCN(C)C", "target or system": "NCI-H1975", "test": "cell growth or viability, MTT", "setting": "0.5 µM, 72 h", "measurement": "inhibition", "value": "44.9%"}
{"Compound": "COc1cc(N2CCN(C(=O)CN)CC2)ccc1Nc1ncc(Cl)c(Nc2ccccc2P(C)(C)=O)n1", "target or system": "NCI-H3122", "test": "CCK-8", "setting": "50 nM, 48 h", "measurement": "viability", "value": "56%"}
{"Compound": "O=C(C[Se]C(=O)c1cccnc1Nc1cccc(C(F)(F)F)c1)Nc1cccc(C(F)(F)F)c1", "target or system": "NCI60 CNS subpanel", "test": "cell growth", "setting": "10 µM, 48 h, one-dose", "measurement": "mean growth percent", "value": "-92.4%"}
{"Compound": "COc1cc(N(C)CCN(C)C)c(NC(=O)/C=C/c2ccc([Si](C)(C)C)cc2)cc1Nc1nccc(-c2cn(C)c3ccccc23)n1", "target or system": "NCI-H1975", "test": "cell growth or viability, MTT", "setting": "0.5 µM, 72 h", "measurement": "inhibition", "value": "56.5%"}
{"Compound": "COc1ccc2c(c1)OC1=C(C(=O)CCC1)C2c1c[nH]c2ccccc12 (stereo not shown)", "target or system": "3T3-L1 preadipocytes", "test": "adipogenesis, Oil Red O staining", "setting": "IC20, 14 days", "measurement": "mean lipid content", "value": "0.498 OD492"}
{"Compound": "COc1ccc(NC(=O)c2c(Nc3ccccc3)sc(C(=O)N/N=C/c3ccc(OC)c(OC)c3)c2NC(C)=O)cc1", "target or system": "HepG2", "test": "cell growth or viability, SRB", "setting": "1 µM, 48 h", "measurement": "viability", "value": "65%"}
{"Compound": "C=CC(=O)N1[C@@H](c2ccc3c(c2)OCO3)c2[nH]c3ccccc3c2C[C@H]1C(=O)NC1CC1", "target or system": "rat DRG neurons", "setting": "1.111 µM, 48 h, together with: vincristine 40 nM", "measurement": "neuron degeneration", "value": "74.7% and 79.1%"}
{"Compound": "CCN(CC)CC(=O)Nc1cccc(-n2cc(-c3ccc4ccc(-c5cn(-c6cccc(NC(=O)CN(CC)CC)c6)nn5)cc4c3)nn2)c1", "target or system": "RCC4", "test": "PCR array, measured: EGF", "setting": "5 x IC50, 4 h, normoxia", "scale": "reference: untreated", "measurement": "fold regulation", "value": -1.51}
{"Compound": "CCOc1ccc(/C=C/C(=O)Nc2cc(Nc3nccc(-c4cn(C)c5ccccc45)n3)c(OC)cc2N(C)CCN(C)C)cc1", "target or system": "NCI-H1975", "test": "cell growth or viability, MTT", "setting": "0.5 µM, 72 h", "measurement": "inhibition", "value": "69.1%"}
{"Compound": "Cc1c(Cl)cccc1Nc1ccccc1C(=O)[Se]CC(=O)Nc1cccc(C(F)(F)F)c1", "target or system": "NCI60 leukaemia subpanel", "test": "NCI60 five-dose screen", "measurement": "GI50", "value": "1580 nM"}
{"Compound": "COc1ccccc1-c1ccncc1C(=O)Nc1ccc(OCc2ccc(Cl)cc2)nn1", "target or system": "DLD-1 BRCA2 knock-out", "test": "colony formation", "setting": "40 µM", "scale": "reference: untreated control", "measurement": "colony survival", "value": "29.4%"}
{"Compound": "COc1cccc(OC)c1-c1cc(C(=O)NC2(C(=O)O)C3CC4CC(C3)CC2C4)nn1-c1ccc(C(=O)N(C)CCCN(C)CCCN(C)C(=O)[C@H](CCCCNC(=O)[C@H](CC(C)C)NC(=O)C2OC2C(=O)O)NC(=O)CN2CCN(CC(=O)[O-])CCN(CC(=O)[O-])CCN(CC(=O)[O-])CC2)cc1C(C)C.[177Lu+3] (mixture of isomers)", "target or system": "HT-29", "setting": "concentration not given, 60 min", "scale": "reference: added activity", "measurement": "surface-bound fraction", "value": "3.76 ± 0.2%"}
{"Compound": "O=C(C[Se]C(=O)c1ccccc1Nc1ccccc1)Nc1cccc(C(F)(F)F)c1", "target or system": "NCI60 CNS subpanel", "test": "cell growth", "setting": "10 µM, 48 h, one-dose", "measurement": "mean growth percent", "value": "-86.3%"}
{"Compound": "Cc1ncsc1-c1ccc(C(C)NC(=O)C2CC(O)CN2C(=O)C(NC(=O)CCCCCCCCCCN2CCCC(Nc3ncc(Cl)c(Nc4ccccc4S(=O)(=O)C(C)C)n3)C2)C(C)(C)C)cc1 (stereo not shown)", "target or system": "22Rv1", "test": "RNA-seq, measured: ZNF793 mRNA", "setting": "concentration not given", "scale": "reference: DMSO", "measurement": "log2 fold change", "value": -1.25}
{"Compound": "CCOC(=O)N1CCN(c2ccccc2C=NOCc2ccc3nc(-c4ccccc4)c(Nc4ccc(C(=O)O)cc4)n3c2)CC1", "target or system": "TDP1", "test": "enzyme activity, inhibitor", "setting": "100 µM, unpurified compound", "measurement": "inhibition", "value": "49%"}
{"Compound": "Cn1ncc2cc(-c3cncc(Cl)c3N3CCC4(CCNC4=O)CC3)ccc21", "target or system": "LS174T", "test": "gene expression, microarray, measured: SPAG4 mRNA", "setting": "concentration not given, 4 h", "scale": "reference: untreated cells", "measurement": "log2 fold change", "value": 1.77}
{"Compound": "O=C(O)c1ccc(Nc2c(-c3ccccc3)nc3ccc(CON=Cc4cccn4-c4nccc(-c5cccs5)n4)cn23)cc1 (mixture of isomers)", "target or system": "TDP1", "test": "enzyme activity, inhibitor", "setting": "100 µM, unpurified compound", "measurement": "inhibition", "value": "49.7%"}
{"Compound": "CCN(C(=O)c1cc(F)ccc1Oc1nncnc1N1CCC2(C1)CN([C@H](CCCN(C)CCOC)C(C)C)C2)C(C)C", "target or system": "HCT-15", "test": "cell growth or viability", "setting": "7 days", "measurement": "GI50", "value": "> 10000 nM"}
{"Compound": "O=C(C[Se]C(=O)c1cc2ccccc2o1)Nc1cccc(C(F)(F)F)c1", "target or system": "NCI60 melanoma subpanel", "test": "cell growth", "setting": "10 µM, 48 h, one-dose", "measurement": "mean growth percent", "value": "-73.9%"}
{"Compound": "CCOC(=O)c1ccc(NC(=O)C(C#N)=C2C(=O)c3ccccc3C2=O)cc1", "target or system": "HepG2", "test": "cell growth or viability, MTT", "setting": "3.125 µM, 24 h", "measurement": "viability", "value": "96.5%"}
{"Compound": "CN1CCCNC(=O)c2cccc(c2)C(=O)NCCCN(C)CCCNc2cccc3c2C(=O)c2cccc(c2C3=O)NCCC1", "target or system": "SAS", "test": "RNA-Seq, measured: WDR61 mRNA", "setting": "1 µM, 24 h", "scale": "reference: untreated cells", "measurement": "log2 fold change", "value": -3.39}
{"Compound": "O=C(C[Se]C(=O)C12CC3CC(CC(C3)C1)C2)Nc1cccc(C(F)(F)F)c1", "target or system": "NCI60 melanoma subpanel", "test": "cell growth, inhibitor", "setting": "five-dose", "measurement": "GI50", "value": "3320 nM"}
{"Compound": "O=C(CCCCCOc1ccc2ccccc2c1)N[C@@H](CO)C[C@@H](O)c1ccc(-c2ccccc2)cc1", "target or system": "HeLa", "test": "CERT activity, HPLC-MS/MS lipidomics, measured: ceramide 16", "setting": "1 µM, 24 h, not cell-number normalised", "measurement": "ceramide level", "value": "25500 pmol/sample and 26100 pmol/sample and 28300 pmol/sample"}
{"Compound": "Cc1cc(/N=N/c2ccc(/N=N/c3ccc(O)c(C(=O)O)c3)cc2)c(N)cc1N", "target or system": "primary mouse articular chondrocytes", "test": "Western blot, measured: Phlpp2", "setting": "25 µM, days 0-6 and 0-9", "scale": "reference: vehicle", "measurement": "protein level", "value": "50 to 70%"}
{"Compound": "COc1cc(N(C)CCN(C)C)c(NC(=O)/C=C/c2ccc(-c3cccc4ccccc34)cc2)cc1Nc1nccc(-c2cn(C)c3ccccc23)n1", "target or system": "NCI-H1975", "test": "cell growth or viability, MTT", "setting": "0.5 µM, 72 h", "measurement": "inhibition", "value": "51.5%"}
{"Compound": "O=C1CCCC2=C1C(c1c[nH]c3ccccc13)c1cc(Br)ccc1O2 (stereo not shown)", "target or system": "3T3-L1 preadipocytes", "test": "adipogenesis, Oil Red O staining", "setting": "IC20, 14 days, single replicate", "measurement": "lipid content", "value": "0.603 OD492 and 0.625 OD492 and 0.615 OD492"}
{"Compound": "COC(=O)c1cc(NC2=NC(=O)C(=Cc3ccc(N(C)C)cc3)S2)ccc1OC(C)=O", "target or system": "MCF7", "test": "GC-MS, measured: L-Cysteine", "setting": "1 µM", "scale": "reference: DMSO", "measurement": "metabolite level", "value": "-1.51 fold change"}
{"Compound": "CN(C)CCN1CCN(c2ccc3nc(-c4ccc5nc(-c6ccc(C(F)(F)F)cc6)[nH]c5c4)[nH]c3c2)CC1", "target or system": "HCC 2998", "test": "SRB", "setting": "10 µM, 48 h", "measurement": "growth percent", "value": "84.7%"}
{"Compound": "O=C(C[Se]C(=O)c1ccccc1Nc1cccc(C(F)(F)F)c1)Nc1cccc(C(F)(F)F)c1", "target or system": "NCI60 melanoma subpanel", "test": "cell growth, inhibitor", "setting": "five-dose", "measurement": "GI50", "value": "1870 nM"}
{"Compound": "N#Cc1cccc(/C=C/C(=O)c2ccc(O)cc2)c1", "target or system": "U-87 MG", "test": "measured: MAP2", "setting": "concentration not given", "scale": "reference: untreated", "measurement": "fold change", "value": 94.3}
{"Compound": "O=C(C[Se]C(=O)c1ccc2ccccc2c1)Nc1cccc(C(F)(F)F)c1", "target or system": "NCI60 CNS subpanel", "test": "cell growth", "setting": "10 µM, 48 h, one-dose", "measurement": "mean growth percent", "value": "-91.6%"}
{"Compound": "C=CC(=O)Nc1cc(Nc2nccc(-c3c(-c4ccc(-c5ccc(CC)cc5)cc4)n(C)c4ccccc34)n2)c(OC)cc1N(C)CCN(C)C", "target or system": "NCI-H1975", "test": "cell growth or viability, MTT", "setting": "0.5 µM, 72 h", "measurement": "inhibition", "value": "60.3%"}
{"Compound": "CCc1n(CC(=O)O[C@@H]2C[C@H](C)CC[C@H]2C(C)C)c2ccccc2[n+]1C", "target or system": "HTS cells (mouse)", "test": "gene microarray, measured: COX6A2", "setting": "1 µM, 6 h, unit not given", "scale": "reference: untreated", "measurement": "mRNA level", "value": 1.6}
